Results from different studies.
Numbered parts are unrelated; each lists some results of a single study.
Sequence of UniProt P23458 (whole entry, looked up): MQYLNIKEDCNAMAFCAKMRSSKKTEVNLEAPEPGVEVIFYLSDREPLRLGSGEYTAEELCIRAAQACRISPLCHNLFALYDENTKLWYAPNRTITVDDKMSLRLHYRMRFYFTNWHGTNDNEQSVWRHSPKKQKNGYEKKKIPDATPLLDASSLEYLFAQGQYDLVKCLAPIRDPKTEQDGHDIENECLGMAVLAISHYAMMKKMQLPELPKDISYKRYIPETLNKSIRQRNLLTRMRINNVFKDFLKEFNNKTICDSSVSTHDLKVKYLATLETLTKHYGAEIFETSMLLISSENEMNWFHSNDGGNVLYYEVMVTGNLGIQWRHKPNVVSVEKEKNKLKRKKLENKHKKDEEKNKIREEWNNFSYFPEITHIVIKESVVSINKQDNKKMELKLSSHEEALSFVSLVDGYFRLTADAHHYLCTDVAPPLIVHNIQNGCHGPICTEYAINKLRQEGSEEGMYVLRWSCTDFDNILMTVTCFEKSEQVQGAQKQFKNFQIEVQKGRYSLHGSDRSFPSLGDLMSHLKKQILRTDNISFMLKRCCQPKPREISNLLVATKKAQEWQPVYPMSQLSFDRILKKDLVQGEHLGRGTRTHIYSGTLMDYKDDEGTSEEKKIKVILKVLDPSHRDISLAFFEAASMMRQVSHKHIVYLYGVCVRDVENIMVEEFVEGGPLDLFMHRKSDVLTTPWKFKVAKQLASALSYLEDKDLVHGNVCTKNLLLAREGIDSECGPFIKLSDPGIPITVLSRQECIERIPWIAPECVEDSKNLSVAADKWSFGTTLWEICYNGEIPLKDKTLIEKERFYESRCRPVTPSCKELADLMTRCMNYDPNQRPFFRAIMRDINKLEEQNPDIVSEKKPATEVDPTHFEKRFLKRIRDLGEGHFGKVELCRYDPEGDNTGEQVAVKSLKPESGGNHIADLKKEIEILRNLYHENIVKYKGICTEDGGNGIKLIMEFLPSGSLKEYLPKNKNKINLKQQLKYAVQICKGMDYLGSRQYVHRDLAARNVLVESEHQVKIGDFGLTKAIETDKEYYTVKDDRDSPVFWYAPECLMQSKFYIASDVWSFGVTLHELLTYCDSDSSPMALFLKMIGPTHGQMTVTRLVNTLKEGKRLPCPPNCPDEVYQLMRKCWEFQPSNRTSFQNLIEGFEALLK
Sequence of UniProt Q12866 (whole entry, looked up): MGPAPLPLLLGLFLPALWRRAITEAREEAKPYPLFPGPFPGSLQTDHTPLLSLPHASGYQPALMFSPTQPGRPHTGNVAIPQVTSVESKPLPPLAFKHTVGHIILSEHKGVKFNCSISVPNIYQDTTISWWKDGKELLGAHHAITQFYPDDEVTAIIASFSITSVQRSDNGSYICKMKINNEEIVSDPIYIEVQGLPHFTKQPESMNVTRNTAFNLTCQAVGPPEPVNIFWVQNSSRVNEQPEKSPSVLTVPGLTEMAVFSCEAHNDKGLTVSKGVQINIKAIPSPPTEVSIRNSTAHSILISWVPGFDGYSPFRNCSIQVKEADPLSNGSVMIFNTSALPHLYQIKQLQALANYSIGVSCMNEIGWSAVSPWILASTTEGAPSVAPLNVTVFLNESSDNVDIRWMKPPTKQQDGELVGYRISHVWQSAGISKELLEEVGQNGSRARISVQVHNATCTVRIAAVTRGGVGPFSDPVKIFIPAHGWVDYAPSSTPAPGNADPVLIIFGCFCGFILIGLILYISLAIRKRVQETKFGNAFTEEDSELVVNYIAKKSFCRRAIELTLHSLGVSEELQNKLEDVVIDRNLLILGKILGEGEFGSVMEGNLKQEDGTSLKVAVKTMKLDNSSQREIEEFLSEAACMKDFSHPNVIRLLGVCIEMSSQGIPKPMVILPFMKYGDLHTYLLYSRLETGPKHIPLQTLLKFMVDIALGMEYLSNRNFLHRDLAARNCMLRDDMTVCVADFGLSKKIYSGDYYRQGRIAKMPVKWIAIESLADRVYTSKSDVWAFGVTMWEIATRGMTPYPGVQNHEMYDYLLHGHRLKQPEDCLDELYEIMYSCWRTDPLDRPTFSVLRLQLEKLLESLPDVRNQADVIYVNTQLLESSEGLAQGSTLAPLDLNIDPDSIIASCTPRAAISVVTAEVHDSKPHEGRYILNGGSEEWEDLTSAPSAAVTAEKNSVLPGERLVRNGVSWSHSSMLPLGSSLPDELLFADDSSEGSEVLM
Sequence of UniProt P54753 (whole entry, looked up): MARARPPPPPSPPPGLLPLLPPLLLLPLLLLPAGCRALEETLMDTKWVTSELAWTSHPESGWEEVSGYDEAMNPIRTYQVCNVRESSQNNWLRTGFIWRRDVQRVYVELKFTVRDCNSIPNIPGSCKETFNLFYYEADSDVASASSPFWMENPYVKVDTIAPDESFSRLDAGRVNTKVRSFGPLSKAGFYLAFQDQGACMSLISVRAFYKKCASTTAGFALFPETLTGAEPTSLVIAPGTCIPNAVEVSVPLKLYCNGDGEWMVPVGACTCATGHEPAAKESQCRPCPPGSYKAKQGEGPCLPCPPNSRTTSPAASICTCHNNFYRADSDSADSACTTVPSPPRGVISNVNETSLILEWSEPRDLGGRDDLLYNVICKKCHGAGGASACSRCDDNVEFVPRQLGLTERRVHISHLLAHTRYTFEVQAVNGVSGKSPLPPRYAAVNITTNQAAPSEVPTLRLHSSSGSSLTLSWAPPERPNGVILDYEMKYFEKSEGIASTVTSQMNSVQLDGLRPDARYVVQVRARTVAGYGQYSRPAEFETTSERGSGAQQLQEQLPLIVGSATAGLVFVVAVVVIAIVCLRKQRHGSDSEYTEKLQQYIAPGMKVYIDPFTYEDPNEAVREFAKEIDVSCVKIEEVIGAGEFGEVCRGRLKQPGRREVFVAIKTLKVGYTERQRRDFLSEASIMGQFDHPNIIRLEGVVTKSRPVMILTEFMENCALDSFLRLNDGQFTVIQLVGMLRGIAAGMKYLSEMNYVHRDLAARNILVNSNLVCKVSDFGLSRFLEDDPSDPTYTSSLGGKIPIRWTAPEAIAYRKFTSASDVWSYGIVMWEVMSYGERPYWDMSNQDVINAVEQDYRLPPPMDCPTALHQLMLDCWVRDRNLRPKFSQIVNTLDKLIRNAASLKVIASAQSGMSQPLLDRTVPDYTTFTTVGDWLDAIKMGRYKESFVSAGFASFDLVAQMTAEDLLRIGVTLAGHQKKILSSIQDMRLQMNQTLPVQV
Sequence of UniProt P42679 (whole entry, looked up): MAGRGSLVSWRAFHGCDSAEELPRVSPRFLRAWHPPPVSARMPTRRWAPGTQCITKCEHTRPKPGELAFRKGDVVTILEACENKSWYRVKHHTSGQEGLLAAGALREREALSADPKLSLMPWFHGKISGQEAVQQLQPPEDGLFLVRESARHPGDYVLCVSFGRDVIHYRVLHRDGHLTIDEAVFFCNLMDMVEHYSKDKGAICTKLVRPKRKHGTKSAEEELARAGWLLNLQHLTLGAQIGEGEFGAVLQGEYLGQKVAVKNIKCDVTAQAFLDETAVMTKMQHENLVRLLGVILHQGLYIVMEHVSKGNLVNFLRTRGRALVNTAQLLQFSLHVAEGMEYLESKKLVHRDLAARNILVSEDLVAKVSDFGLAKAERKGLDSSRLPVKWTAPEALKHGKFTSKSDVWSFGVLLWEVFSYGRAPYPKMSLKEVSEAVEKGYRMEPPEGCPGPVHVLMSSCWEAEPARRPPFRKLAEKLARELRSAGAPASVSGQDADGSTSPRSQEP
Sequence of UniProt Q02763 (whole entry, looked up): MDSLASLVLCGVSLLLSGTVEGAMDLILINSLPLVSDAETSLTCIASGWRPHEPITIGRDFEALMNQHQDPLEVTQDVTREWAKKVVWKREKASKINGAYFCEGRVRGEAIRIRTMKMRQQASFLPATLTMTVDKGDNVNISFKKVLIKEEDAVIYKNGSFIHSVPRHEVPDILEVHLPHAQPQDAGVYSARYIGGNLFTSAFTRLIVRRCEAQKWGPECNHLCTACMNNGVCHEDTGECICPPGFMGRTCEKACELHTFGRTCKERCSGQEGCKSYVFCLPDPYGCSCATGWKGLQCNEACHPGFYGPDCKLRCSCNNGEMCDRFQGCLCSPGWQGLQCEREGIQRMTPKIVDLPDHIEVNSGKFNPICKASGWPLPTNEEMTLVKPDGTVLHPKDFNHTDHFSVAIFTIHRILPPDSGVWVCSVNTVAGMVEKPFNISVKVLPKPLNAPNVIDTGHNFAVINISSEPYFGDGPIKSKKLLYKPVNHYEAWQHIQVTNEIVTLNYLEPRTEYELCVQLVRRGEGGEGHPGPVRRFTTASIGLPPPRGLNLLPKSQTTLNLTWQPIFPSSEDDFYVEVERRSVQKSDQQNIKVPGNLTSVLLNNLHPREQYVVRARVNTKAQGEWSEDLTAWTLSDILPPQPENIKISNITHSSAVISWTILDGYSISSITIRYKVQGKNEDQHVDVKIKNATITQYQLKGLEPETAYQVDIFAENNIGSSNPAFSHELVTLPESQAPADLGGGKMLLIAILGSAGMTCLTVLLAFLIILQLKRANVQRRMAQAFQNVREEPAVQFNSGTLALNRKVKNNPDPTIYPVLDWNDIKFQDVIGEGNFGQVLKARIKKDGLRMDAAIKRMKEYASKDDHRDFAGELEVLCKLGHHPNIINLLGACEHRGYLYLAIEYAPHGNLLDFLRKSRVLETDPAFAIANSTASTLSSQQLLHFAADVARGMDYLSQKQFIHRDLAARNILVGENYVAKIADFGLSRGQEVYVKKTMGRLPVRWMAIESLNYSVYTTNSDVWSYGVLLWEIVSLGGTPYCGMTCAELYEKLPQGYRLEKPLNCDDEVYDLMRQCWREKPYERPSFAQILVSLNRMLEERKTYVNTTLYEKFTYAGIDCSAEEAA
Sequence of UniProt P11802 (whole entry, looked up): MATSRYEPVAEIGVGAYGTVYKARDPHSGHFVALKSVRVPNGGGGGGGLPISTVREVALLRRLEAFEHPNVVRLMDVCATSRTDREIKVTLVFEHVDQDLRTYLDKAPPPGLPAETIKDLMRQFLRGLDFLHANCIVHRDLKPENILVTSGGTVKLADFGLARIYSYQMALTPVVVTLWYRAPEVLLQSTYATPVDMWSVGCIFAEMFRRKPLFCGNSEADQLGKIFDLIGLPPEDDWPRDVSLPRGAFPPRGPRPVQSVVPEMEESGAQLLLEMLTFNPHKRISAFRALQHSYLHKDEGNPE

Block 1 — cell line: mouse MPNST tumor cells; method: high-content nuclear imaging; measured: cell number; tested at: 10 µM; time: 12 h; setting: mean of 2 replicates; baseline: plate mean; reading: higher = more cells
SMILES | nuclei count [z-score]
Cc1cc2c(cc1C(F)(F)F)N(C(=O)Nc1ccc(Oc3cccnc3C)nc1)CC2 | 2.19
CN(CC[C@@H](Oc1ccc(C(F)(F)F)cc1)c1ccccc1)CC(=O)O | 0.106
OCC(CO)N[C@H]1C[C@](O)(CO)[C@@H](O)[C@H](O)[C@H]1O | 0.237
CC[C@H]1Cn2nc(-c3ccc(Cl)cc3Cl)c3nc(C)cc(c32)N1CC1CC1 | -3.79
CC(C)Cn1cc(C#N)c2cc(Oc3ccc(NC(=O)[C@@H]4CCCN4)cc3)ccc21 | -6.17
CC(C)OC(=O)NC1CCN(Cc2cc(Cl)c3cccnc3c2O)CC1 | -4.65

Block 2 — cell line: A-375; tested at: 100 µM; time: 36 h
SMILES | viability [%]
Nc1nnc(-c2cccc(Cl)c2Cl)c(N)n1 | 115
C[C@H](CCC(=O)O)[C@H]1CC[C@H]2[C@@H]3[C@H](O)C[C@@H]4C[C@H](O)CC[C@]4(C)[C@H]3C[C@H](O)[C@]12C | 102
Cc1ccc(NC(=O)c2ccc(CN3CCN(C)CC3)cc2)cc1Nc1nc(-c2cccnc2)cs1 | 1.94
O=C1OC2(c3ccc(O)cc3Oc3cc(O)ccc32)c2ccccc21 | 190

Block 3 — read-out: cell-free assay; method: competition with immobilised ligand; tested at: 1 µM
Compound: CN(c1ccnc(CNc2nc(Nc3ccc4c(c3)CC(=O)N4)ncc2C(F)(F)F)n1)S(C)(=O)=O
target | remaining binding
ALK tyrosine kinase receptor (ALK, Homo sapiens, UniProt Q9UM73) | 81%
Tyrosine-protein kinase JAK1, JH2 (JAK1, Homo sapiens, UniProt P23458) | 20%
Serine/threonine-protein kinase LATS1 (LATS1, Homo sapiens, UniProt O95835) | 51%
Cyclin-dependent kinase 4 (CDK4, Homo sapiens, UniProt P11802) | 100%
Serine/threonine-protein kinase Sgk1 (SGK1, Homo sapiens, UniProt O00141) | 66%
Phosphatidylinositol 4-kinase beta (PI4KB, Homo sapiens, UniProt Q9UBF8) | 76%
Angiopoietin-1 receptor (TEK, Homo sapiens, UniProt Q02763) | 50%
SRSF protein kinase 3 (SRPK3, Homo sapiens, UniProt Q9UPE1) | 11%
Mitogen-activated protein kinase 6 (MAPK6, Homo sapiens, UniProt Q16659) | 66%
Mitogen-activated protein kinase kinase kinase kinase 3 (MAP4K3, Homo sapiens, UniProt Q8IVH8) | 87%
Mitotic checkpoint serine/threonine-protein kinase BUB1 (BUB1, Homo sapiens, UniProt O43683) | 91%
Casein kinase I isoform gamma-2 (CSNK1G2, Homo sapiens, UniProt P78368) | 100%
Megakaryocyte-associated tyrosine-protein kinase (MATK, Homo sapiens, UniProt P42679) | 65%
Ephrin type-B receptor 3 (EPHB3, Homo sapiens, UniProt P54753) | 95%
Tyrosine-protein kinase Mer (MERTK, Homo sapiens, UniProt Q12866) | 21%

Block 4 — host: mouse; medium: microsomes or S9; tested at: 2 µM; time: 0.5 h
SMILES | remaining compound [%]
CC(C)CN1C(=O)C2C3CC4C5(C)CCCC(C)(C(=O)O)C5CCC4(C=C3C(C)C)C2C1=O (stereo not shown) | 28.8
Cc1ccc(C(OC(=O)CC(C)C)c2cc(=O)cc[nH]2)cc1 (stereo not shown) | 0.0103
CN(C)CCCOc1ccc(CN2CCC(NC(=O)c3ccco3)CC2)cc1 | 50.9
COc1ccc(C(N)=O)cc1NC1C2CCOC2C12CCC2 (stereo not shown) | 47.3
COc1cc(N2CCC(N3CCN(C)CC3)CC2)ccc1Nc1ncc(Cl)c(Nc2ccccc2N)n1 | 72.5

Other studies, line by line
SMILES | method | host | dose | setting | measurement | result
CC(C)n1cnc(-c2ccc(F)cc2)c1-c1ncc(C(=O)Nc2ccc(N3CCN(C)CC3)cc2)[nH]1 | phase 2a trial | idiopathic pulmonary fibrosis patients | 30 mg once daily | adverse event grade 1 | patients with first-degree AV block | 1%

Repeated from above (other studies, line by line):
SMILES | method | host | dose | setting | measurement | result
CC(C)n1cnc(-c2ccc(F)cc2)c1-c1ncc(C(=O)Nc2ccc(N3CCN(C)CC3)cc2)[nH]1 | phase 2a trial | idiopathic pulmonary fibrosis patients | 30 mg once daily | adverse event grade 1 | patients with first-degree AV block | 1%
